Assay results pooled from the literature.
Compare with care: the assays were run in different laboratories. ± marks the error that the study gave.

CCCCCCCOC(=O)Cc1c(C)n(C(=O)c2ccc(Cl)cc2)c2ccc(OC)cc12  latency of nociceptive response (hot plate test; BALB/c mice; 75 mg/kg, 90 min): 16.6 ± 1.13 s
CCNC(=O)c1noc(-c2cc(C(C)C)c(O)cc2O)c1NC(=O)CCN1CCOCC1  protein level (Western blot, measured: Hsp70; athymic nude mice, GTL-16 xenograft, tumour; dose not given, 6 h after last dose): increased
CCCC[C@H](NC(=O)[C@@H](NC(=O)[C@H](CC(=O)O)NC(=O)[C@H](CCC(N)=O)NC(=O)[C@H](CC(C)C)NC(=O)[C@H](CC(C)C)NC(=O)[C@H](CCCN)NC(=O)[C@H](CCCNC(=N)N)NC(=O)[C@H](C)NC(=O)[C@H](CO)NC(=O)[C@H](CC(C)C)NC(=O)[C@H](CCC(N)=O)NC(=O)[C@H](CC)NC(=O)[C@H](CC(C)C)NC(=O)[C@@H](NC(=O)[C@H](CCCN)NC(=O)[C@H](CCCNC(=N)N)NC(=O)[C@H](Cc1ccc(O)cc1)NC(=O)[C@H](CO)NC(=O)[C@H](CCC(N)=O)NC(=O)[C@@H](NC(=O)[C@H](Cc1ccccc1)NC(=O)[C@@H](NC(=O)[C@H](C)NC(=O)[C@H](CC(=O)O)NC(=O)[C@@H](C)NC(=O)[C@H](Cc1ccc(O)cc1)N(C)C(C)=O)[C@@H](C)CC)[C@@H](C)O)C(C)C)[C@@H](C)CC)C(=O)N[C@@H](CC(=O)O)C(=O)NCCCCNC(=N)N  serum GH level (GH release, ELISA; male Sprague-Dawley rat, anaesthetised, serum; subcutaneous, 3 µg/kg, 15 min): 90.8 ± 20.3 ng/mL
CCCOC(=O)Cc1c(C)n(C(=O)c2ccc(Cl)cc2)c2ccc(OC)cc12  analgesia (acetic acid writhing test; BALB/c mouse; intraperitoneal, 10 mg/kg; baseline: negative control): 58.6%
Cc1ccc(N(CCc2nnc(S)o2)S(=O)(=O)c2ccc(C)cc2)cc1  analgesic protection (radiant heat tail flick; rat; 100 mg/kg): 76.3%
NS(=O)(=O)c1ccc(NC(=O)NN[C@@H]2O[C@H](CO)[C@@H](O)[C@H](O)[C@H]2O)cc1  maximal IOP reduction (rabbit, glaucoma model; topical ocular, 1 %, 1 h): ~5 mmHg
CCC1CC2C(C)=CC3C(=O)CCCC3C=CC(C)=CC2C(=O)O1 (stereo not drawn)  Aβ plaque number reduction (thioflavin S staining; 5XFAD transgenic mouse, cortex; oral gavage, 30 mg/kg/day, 5 days; baseline: untreated): 25.3%
Cc1ccc(C(=O)Nc2ccc(CP(=O)(O)O)cc2CP(=O)(O)O)cc1NC(=O)c1cccc(NC(=O)Nc2cccc(C(=O)Nc3cc(C(=O)Nc4ccc(CP(=O)(O)O)cc4CP(=O)(O)O)ccc3C)c2)c1  APTT (human plasma; 141 µM): 39.7 ± 3.9 s
CC(C)C[C@@H]1NC(=O)[C@H](CS)NC(=O)[C@H](CCCCN)NC(=O)[C@H](CC(=O)O)N(C(=O)[C@@H](N)Cc2c[nH]c3ccccc23)CCCNC(=O)NCCCCN([C@@H](C)C(N)=O)C1=O  arthritis incidence (DBA/1 mouse collagen-induced arthritis; intraperitoneal, 360 pg/g weekly; baseline: PBS): no effect
Cc1ncc([N+](=O)[O-])n1CCOCc1nnc(SCC(=O)c2ccc(Cl)cc2)o1  DPPH scavenging (75 µg/mL, 45 min): 38.2 ± 0.54%
CCCC[C@H](NC(=O)[C@@H](NC(=O)[C@H](CC(=O)O)NC(=O)[C@H](CCC(N)=O)NC(=O)[C@H](CC(C)C)NC(=O)[C@H](CC(C)C)NC(=O)[C@H](CCCN)NC(=O)[C@H](CCCNC(=N)N)NC(=O)[C@H](C)NC(=O)[C@H](CO)NC(=O)[C@H](CC(C)C)NC(=O)[C@H](CCC(N)=O)NC(=O)[C@H](CC)NC(=O)[C@H](CC(C)C)NC(=O)[C@@H](NC(=O)[C@H](CCCN)NC(=O)[C@H](CCCNC(=N)N)NC(=O)[C@H](Cc1ccc(O)cc1)NC(=O)[C@H](CO)NC(=O)[C@H](CC(N)=O)NC(=O)[C@@H](NC(=O)[C@H](Cc1c(F)c(F)c(F)c(F)c1F)NC(=O)[C@@H](NC(=O)[C@H](C)NC(=O)[C@H](CC(=O)O)NC(=O)[C@@H](C)NC(=O)CCc1ccc(O)cc1)[C@@H](C)CC)[C@@H](C)O)C(C)C)[C@@H](C)CC)C(=O)N[C@@H](CO)C(=O)N[C@@H](CCCNC(=N)N)C(=O)NCCCC(N)=O  serum GH level (GH release, ELISA; male Sprague-Dawley rat, anaesthetised, serum; subcutaneous, 3 µg/kg, 30 min): 153 ± 33.3 ng/mL
O=c1c(OCc2ccccc2)c(-c2cccc([N+](=O)[O-])c2)oc2ccccc12  serum alanine aminotransferase (diabetic rat; 5 mg/kg, p-nitrophenyl β-glucoside induced): 44.6 ± 2.98 IU
CCCCOc1nc(N)c2[nH]c(=O)n(CCCN(CCCN3CCOCC3)Cc3cccc(CC(=O)OC)c3)c2n1  duration of effect (rat, Brown Norway, ovalbumin-sensitised; intratracheal, eight once-weekly doses): ≥ 26 days
CC(C)(O)c1ccc(N2Cc3c(ccnc3-c3ccc(F)cc3OCC(F)(F)F)C2=O)cc1  glucosylsphingosine level (Gaucher disease mouse model, plasma; 30 mg/kg, single dose; baseline: vehicle): 88 ± 4%
C=CC(=O)N1C[C@H](C)N(c2nc(OC[C@@]34CCCN3C[C@H](F)C4)nc3c(F)c(-c4ccc(F)c5sc(N)c(C#N)c45)c(C(F)(F)F)cc23)C[C@H]1C  pERK inhibition (mouse, MIA PaCa-2 Matrigel plug; oral, 30 mg/kg single dose, 6 h): 92%
O=c1c(OCc2ccccc2)c(-c2ccc([N+](=O)[O-])cc2)oc2ccccc12  serum HDL cholesterol (diabetic rat; 5 mg/kg, 28 days, p-nitrophenyl β-glucoside induced): 39.9 ± 1.92 mg/dL
COc1ccc(C2CC(c3ccc(C)cc3)=Nc3ccccc3S2)cc1 (stereo not drawn)  blood glucose (rat, normal, overnight fasted; oral, 10 mg/kg, 90 min, oral glucose tolerance test, together with: glucose 3 g/kg oral): 116 ± 4.01 mg/dL
Cc1cc2c(cc1C1(c3ncc(C(=O)O)cn3)CC1)C(C)(C)CCC2(C)C  log2 fold change (RNA sequencing, measured: Upp1; rat, brain; dose not given, 24 h; baseline: vehicle): 0.055
C[C@H](NC(=O)COC(=O)[C@H](C)NC(=O)CO)C(=O)O  depolymerization rate constant (water; pH 4, 37 °C): 0.011 h⁻¹
CC(C)c1cnc(-c2cc(Cl)ccc2F)cc1Nc1ccncc1C(=O)NC(CO)CO  maximum inhibition (measured: pSMAD2; 4T1 tumour-bearing mouse, tumour; 30 mg/kg twice daily; baseline: vehicle): 79%
CC(C)OC(=O)[C@H](CO)NCc1cc(Cl)c(OCc2cccc(-c3ccccc3)c2Br)cc1OCc1cccnc1  PD-L1 protein level (Western blot, measured: human PD-L1; humanized PD-1 C57BL/6 mice, hPD-L1 MC-38 tumour, tumour; dose not given): decreased
COc1ccc(S(=O)(=O)N2CCc3ccccc3C2)cc1N1CCN(C(=O)c2ccc(F)cc2C(F)(F)F)CC1  TH-ir cells in SNpc (6-OHDA lesioned rats; 0.3 µg/24 h, 12 weeks post lesion; baseline: lesioned over intact side): 15.4 ± 1.9%
CCCC[C@H](NC(=O)[C@@H](NC(=O)[C@H](CC(=O)O)NC(=O)[C@H](CCC(N)=O)NC(=O)[C@H](CC(C)C)NC(=O)[C@H](CC(C)C)NC(=O)[C@H](CCCN)NC(=O)[C@H](CCCNC(=N)N)NC(=O)[C@H](C)NC(=O)[C@H](CO)NC(=O)[C@H](CC(C)C)NC(=O)[C@H](CCC(N)=O)NC(=O)[C@H](CC)NC(=O)[C@H](CC(C)C)NC(=O)[C@@H](NC(=O)[C@H](CCCN)NC(=O)[C@H](CCCNC(=N)N)NC(=O)[C@H](Cc1ccc(O)cc1)NC(=O)[C@H](CO)NC(=O)[C@H](CCC(N)=O)NC(=O)[C@@H](NC(=O)[C@H](Cc1ccccc1)NC(=O)[C@@H](NC(=O)[C@H](C)NC(=O)[C@H](CC(=O)O)NC(=O)[C@H](C)NC(=O)CCc1ccc(O)cc1)[C@@H](C)CC)[C@@H](C)O)C(C)C)[C@@H](C)CC)C(=O)N[C@@H](CC(=O)O)C(=O)N[C@@H](CCCNC(=N)N)C(=O)NCCCCC(N)=O  serum GH level (GH release, ELISA; male Sprague-Dawley rat, anaesthetised, serum; subcutaneous, 3 µg/kg, 15 min): 259 ± 31.1 ng/mL
CN1CCC[C@]1(C)/C=C/S(=O)(=O)NC(=O)Nc1c2c(cc3c1CCC3)CCC2  inhibition (IL-1β release, ex vivo whole blood; human, whole blood; oral, 400 mg single dose, 24 h, together with: LPS and ATP): > 90%
Cc1ccc(-c2oc3ccccc3c(=O)c2OCc2ccccc2)cc1  serum alanine aminotransferase (diabetic rat; 7.5 mg/kg, p-nitrophenyl β-glucoside induced): 33.8 ± 2.43 IU
CCCC[C@H](NC(=O)[C@@H](NC(=O)[C@H](CC(=O)O)NC(=O)[C@H](CCC(N)=O)NC(=O)[C@H](CC(C)C)NC(=O)[C@H](CC(C)C)NC(=O)[C@H](CCCN)NC(=O)[C@H](CCCNC(=N)N)NC(=O)[C@H](C)NC(=O)[C@H](CO)NC(=O)[C@H](CC(C)C)NC(=O)[C@H](CCC(N)=O)NC(=O)[C@H](CC)NC(=O)[C@H](CC(C)C)NC(=O)[C@@H](NC(=O)[C@H](CCCN)NC(=O)[C@H](CCCNC(=N)N)NC(=O)[C@H](Cc1ccc(O)cc1)NC(=O)[C@H](CO)NC(=O)[C@H](CCC(N)=O)NC(=O)[C@@H](NC(=O)[C@H](Cc1ccccc1)NC(=O)[C@@H](NC(=O)[C@H](C)NC(=O)[C@H](CC(=O)O)NC(=O)[C@H](C)NC(=O)[C@H](Cc1ccc(O)cc1)NC)[C@@H](C)CC)[C@@H](C)O)C(C)C)[C@@H](C)CC)C(=O)N[C@@H](CC(=O)O)C(=O)NCCCCNC(=N)N  serum GH level (GH release, ELISA; male Sprague-Dawley rat, anaesthetised, serum; subcutaneous, 3 µg/kg, 15 min): 305 ± 40 ng/mL
COc1c2c(cc3oc(CO)cc(=O)c13)O[C@H](C(C)(C)O)C2  hot plate latency (analgesia; mouse; oral, 1 mg/kg, 1.5 h): 11.8 ± 1.3 s
COc1ccc(-c2oc3ccccc3c(=O)c2OCc2ccccc2)cc1  serum alkaline phosphatase (diabetic rat; 5 mg/kg, p-nitrophenyl β-glucoside induced): 198 ± 4.71 IU
CCCCCCOC(=O)Cc1c(C)n(C(=O)c2ccc(Cl)cc2)c2ccc(OC)cc12  analgesia (acetic acid writhing test; BALB/c mouse; intraperitoneal, 30 mg/kg; baseline: negative control): 73.3%
CC[C@H]1[C@@H](O)[C@@H]2[C@H](CC[C@]3(C)[C@@H]([C@H](C)CCOS(=O)(=O)[O-])CC[C@@H]23)[C@@]2(C)CC[C@@H](O)C[C@@H]12.[Na+]  whole-body lean mass (EchoMRI; ob/ob NASH mouse model; oral, 10 mg/kg once daily, 8 weeks): 17.2 ± 0.2 g
COc1ccc2c(c1)c(CC(=O)OCC(=O)c1ccccc1)c(C)n2C(=O)c1ccc(Cl)cc1  latency of nociceptive response (hot plate test; BALB/c mice; 100 mg/kg, 0 min): 10.8 ± 0.58 s
Cc1cccc(Cn2ncc3c4cc(F)c(CN(C)C)cc4n(C)c3c2=O)n1  CD11b+/CD45+/Ly6C+ inflammatory monocytes (rd10 mouse, retina; intraperitoneal, 50 mg/kg at P14, P21): decreased
O=[N][Fe]1([N]=O)[S](CCO)[Fe]([N]=O)([N]=O)[S]1CCO  protein level (western blot, measured: NeuN; aged C57BL/6JNarl mice on Western diet, hippocampus; dose not given; baseline: Western diet alone): increased

Some of these lines once more:
CCCC[C@H](NC(=O)[C@@H](NC(=O)[C@H](CC(=O)O)NC(=O)[C@H](CCC(N)=O)NC(=O)[C@H](CC(C)C)NC(=O)[C@H](CC(C)C)NC(=O)[C@H](CCCN)NC(=O)[C@H](CCCNC(=N)N)NC(=O)[C@H](C)NC(=O)[C@H](CO)NC(=O)[C@H](CC(C)C)NC(=O)[C@H](CCC(N)=O)NC(=O)[C@H](CC)NC(=O)[C@H](CC(C)C)NC(=O)[C@@H](NC(=O)[C@H](CCCN)NC(=O)[C@H](CCCNC(=N)N)NC(=O)[C@H](Cc1ccc(O)cc1)NC(=O)[C@H](CO)NC(=O)[C@H](CC(N)=O)NC(=O)[C@@H](NC(=O)[C@H](Cc1c(F)c(F)c(F)c(F)c1F)NC(=O)[C@@H](NC(=O)[C@H](C)NC(=O)[C@H](CC(=O)O)NC(=O)[C@@H](C)NC(=O)CCc1ccc(O)cc1)[C@@H](C)CC)[C@@H](C)O)C(C)C)[C@@H](C)CC)C(=O)N[C@@H](CO)C(=O)N[C@@H](CCCNC(=N)N)C(=O)NCCCC(N)=O  serum GH level (GH release, ELISA; male Sprague-Dawley rat, anaesthetised, serum; subcutaneous, 3 µg/kg, 30 min): 153 ± 33.3 ng/mL
O=c1c(OCc2ccccc2)c(-c2cccc([N+](=O)[O-])c2)oc2ccccc12  serum alanine aminotransferase (diabetic rat; 5 mg/kg, p-nitrophenyl β-glucoside induced): 44.6 ± 2.98 IU
CCCCOc1nc(N)c2[nH]c(=O)n(CCCN(CCCN3CCOCC3)Cc3cccc(CC(=O)OC)c3)c2n1  duration of effect (rat, Brown Norway, ovalbumin-sensitised; intratracheal, eight once-weekly doses): ≥ 26 days
CC(C)(O)c1ccc(N2Cc3c(ccnc3-c3ccc(F)cc3OCC(F)(F)F)C2=O)cc1  glucosylsphingosine level (Gaucher disease mouse model, plasma; 30 mg/kg, single dose; baseline: vehicle): 88 ± 4%
C=CC(=O)N1C[C@H](C)N(c2nc(OC[C@@]34CCCN3C[C@H](F)C4)nc3c(F)c(-c4ccc(F)c5sc(N)c(C#N)c45)c(C(F)(F)F)cc23)C[C@H]1C  pERK inhibition (mouse, MIA PaCa-2 Matrigel plug; oral, 30 mg/kg single dose, 6 h): 92%
